Measured values collected from several papers.
Lines come from different studies, so protocols differ.
Observed: metabolic stability
Host: human

Nc1nc(SCc2ccc(Cl)cc2)nn1S(=O)(=O)c1ccc2c(c1)CCO2
half-life (liver microsomes; 1 µM, pH 7.4): 3.2 min

C=CC(=O)Nc1cccc(Cn2ncc3cnc(Nc4cnn(CCOC)c4)nc32)c1
half-life (hepatocytes): 61.2 min

CN(C)C(=O)c1ccnc(N2Cc3cn(Cc4cc(Cl)cc(Cl)c4)nc3C2)n1
half-life (liver microsomes): 44 min

Cc1c(Cc2ccc(F)c(OC(C)C(=O)O)c2)c2ccc(C(=O)NC(C)c3ccc(C(C)(C)C)cc3)cc2n1CC1CCC1 (stereo not drawn)
half-life (liver microsomes): > 60 min

CCC(CC)CNC(=N)NC(=N)NCCCCCCNC(=N)NC(=N)NCC(CC)CC
half-life (liver microsomes; 2 µM): 668 min

O=c1c(-c2cnn(-c3ccc(Cl)cc3)c2)c(C(F)(F)F)oc2c(O)c(O)ccc12
half-life (liver microsomes): > 500 min

Cc1c(Cc2cccc(OC(C)(C)C(=O)O)c2)c2ccc(C(=O)N[C@@H](C)c3ccc(F)c(C(C)(C)C)c3)cc2n1CC(C)C
half-life (liver microsomes): > 60 min

C=CC(=O)N1CCCC(n2c(=O)c3ncccc3n(Cc3ccc(Oc4ccccc4)cc3)c2=O)C1 (stereo not drawn)
half-life (hepatocytes; 1 µM): 84.8 min

CNC(=O)C1CCCN(C(=O)C2CC3CCC2N3C(=O)[C@@H]2C[C@@H](O)CN2C(=O)NCc2cccc(Cl)c2F)C1 (mixture of isomers)
half-life (liver microsomes): 53 min

Cc1c(Cc2cc(F)cc(OC(C)(C)C(=O)O)c2)c2ccc(C(=O)N[C@@H](C)c3cccc(C(C)(C)C)c3)cc2n1CC(C)C
half-life (liver microsomes): > 60 min

O=C(N1CCCCC1)C12CC(c3ccccc3)(C1)C2(Br)Br
half-life (liver microsomes; 2 µM, pH 7.4): 12 min

N#Cc1cccc(N2Cc3cn(Cc4ccc(F)cc4)nc3C2)c1
half-life (liver microsomes): 42 min

Cc1c(Cc2ccc(Cl)c(O[C@@H](C)C(=O)O)c2)c2ccc(C(=O)N[C@@H](C)c3ccc(C(C)(C)C)cc3)cc2n1CC1CCC1
half-life (liver microsomes): 48 min

CN(C)C(=O)c1cccc(N2Cc3cn(CC4CCCCC4)nc3C2)c1
half-life (liver microsomes): 26 min

Cc1c(Cc2ccc(Cl)c(O[C@@H](C)C(=O)O)c2)c2ccc(C(=O)N[C@@H](C)c3ccc(C(C)(C)C)cc3)cc2n1CC1CC1
half-life (liver microsomes): > 60 min

O=C(N[C@@H](CCCCNC(=O)c1ccc([N+](=O)[O-])o1)c1nc2ccccc2[nH]1)c1ccc(-c2ccccc2)cc1
half-life (liver microsomes; 1 µM): 2.5 min

O=C(NC1CCCCC1)c1cccc(N2Cc3cn(Cc4ccc(F)cc4)nc3C2)c1
half-life (liver microsomes): > 1000 min

Cc1c(Cc2ccc(Cl)c(O[C@H](C)C(=O)O)c2)c2ccc(C(=O)N[C@@H](C)c3ccc(C(C)(C)C)cc3)cc2n1C
half-life (liver microsomes): 56 min

Cc1ncsc1-c1ccc([C@@H]2CCCCCCNC(=O)C[C@@H]3N=C(c4ccc(cc4)OCCCCCC(=O)N[C@@H](C(C)(C)C)C(=O)N4C[C@H](O)C[C@H]4C(=O)N2)c2c(sc(C)c2C)-n2c(C)nnc23)cc1
half-life (liver microsomes; 1 µM): 2.7 min

O=S(=O)(NCc1ccncc1)c1ccc(C2CCCCC2)cc1
half-life (hepatocytes; 1 µM): 79.2 min

Cc1c(Cc2cccc(OC(C)(C)C(=O)O)c2)c2ccc(C(=O)N[C@@H](C)c3cccc(C(C)(C)C)c3)cc2n1CC(C)C
half-life (liver microsomes): > 60 min

Cn1cnc([N+](=O)[O-])c1Sc1ccccc1C(=O)NCCC(N)=O
half-life (blood; 1 µM, whole blood): 59.9 min

CN(C)C(=O)c1ccnc(N2Cc3cn(Cc4ccc(F)cc4F)nc3C2)n1
half-life (liver microsomes): > 1000 min

N=C(c1ccc([N+](=O)[O-])o1)N1CCC(NC(=O)c2cc(-c3ccc(F)cc3F)on2)(c2nc3ccccc3[nH]2)CC1
half-life (liver microsomes; 1 µM): 3.8 min

CN(C)C(=O)c1ccnc(N2Cc3cn(Cc4ccc(Cl)cc4)nc3C2)n1
half-life (liver microsomes): 244 min

C/C(=N\OCCN(C)Cc1ccccc1)c1ccc(C(F)(F)F)cc1
half-life (liver microsomes): 14.8 min

CN(C)C(=O)c1ccnc(N2Cc3cn(Cc4ccc(F)c(Cl)c4)nc3C2)n1
half-life (liver microsomes): 135 min

O=C(c1ccc(-c2ccccc2)cc1)N1CCCCC1
half-life (liver microsomes; 2 µM, pH 7.4): 139 min

Cc1c(Cc2ccc(Cl)c(O[C@@H](C)C(=O)O)c2)c2ccc(C(=O)N[C@@H](C)c3cc(F)cc(C(C)(C)C)c3)cc2n1C
half-life (liver microsomes): > 60 min

CN1CCN(C(=O)c2ccnc(N3Cc4cnn(Cc5ccc(F)cc5)c4C3)n2)CC1
half-life (liver microsomes): 14 min

A few entries again:
C=CC(=O)N1CCCC(n2c(=O)c3ncccc3n(Cc3ccc(Oc4ccccc4)cc3)c2=O)C1 (stereo not drawn)
half-life (hepatocytes; 1 µM): 84.8 min

Cc1c(Cc2ccc(Cl)c(O[C@H](C)C(=O)O)c2)c2ccc(C(=O)N[C@@H](C)c3ccc(C(C)(C)C)cc3)cc2n1C
half-life (liver microsomes): 56 min

Cc1c(Cc2ccc(Cl)c(O[C@@H](C)C(=O)O)c2)c2ccc(C(=O)N[C@@H](C)c3ccc(C(C)(C)C)cc3)cc2n1CC1CC1
half-life (liver microsomes): > 60 min
